Assay results pooled from the literature.
Compare with care: the assays were run in different laboratories. ± gives the spread as reported.
Target: 5-hydroxytryptamine receptor 2B (HTR2B, Homo sapiens, UniProt P41595)
UniProt P41595, sequence (whole entry, looked up): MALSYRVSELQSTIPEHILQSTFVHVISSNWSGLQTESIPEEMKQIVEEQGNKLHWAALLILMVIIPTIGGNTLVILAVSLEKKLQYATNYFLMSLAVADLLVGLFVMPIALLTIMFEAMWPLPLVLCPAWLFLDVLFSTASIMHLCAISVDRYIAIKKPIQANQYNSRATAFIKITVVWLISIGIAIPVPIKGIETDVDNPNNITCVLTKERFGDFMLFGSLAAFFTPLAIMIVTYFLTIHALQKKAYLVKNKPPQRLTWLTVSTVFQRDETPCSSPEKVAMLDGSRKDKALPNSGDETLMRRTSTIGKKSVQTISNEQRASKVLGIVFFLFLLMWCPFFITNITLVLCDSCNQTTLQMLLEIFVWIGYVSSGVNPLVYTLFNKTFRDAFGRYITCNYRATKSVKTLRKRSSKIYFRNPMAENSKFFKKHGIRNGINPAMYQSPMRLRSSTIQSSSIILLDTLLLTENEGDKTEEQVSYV

`Cn1cccc1-c1cccnc1` has an inhibition of 0.3% (binding; 50 µM).
For `O=c1ccc2ccccc2o1`, the inhibition was -6.21% (agonist radioligand binding; 10 µM, SafetyScreen44).
The Emax of `CNC(C)Cc1ccc2nsnc2c1` (centres unmarked) is reported as 69.4 ± 5.8% (agonist; baseline: 5-HT).
The inhibition of `COc1cc(Cl)c(C(=O)N[C@@H](CN[C@H]2CC[C@@H](N)CC2)Cc2ccc(C#N)cc2)cc1-c1ccc(CN[C@H](C)c2ccc(C)cc2)o1` is reported as 28% (agonist response, antagonist; human cells; 10 µM, 5-HT2B antagonist).
The inhibition of `CN1CCN(c2cc(-c3ccncc3)c(-c3ccc4ccccc4c3)nn2)CC1` is reported as 21.3% (antagonist, FLIPR; 10 µM).
For `O=C(Nc1cccnn1)N1CCN([C@@H]2CCOc3cc(C(F)(F)F)ccc32)CC1`, the inhibition was 65% (binding; 20 µM).
`CNC(C)Cc1ccc2nonc2c1` (centres unmarked) has an Emax of 49.4 ± 6.2% (agonist; baseline: 5-HT).
The Emax of `COc1cc(CCNC(C)c2ccccc2O)c(OC)cc1C#N` (single isomer, unassigned; (+)) is reported as 41% (Gq dissociation, agonist, BRET; baseline: 5-HT).
`C/C=C1/CN2CC[C@]34C(=C(C(=O)OC)[C@H]1C[C@H]23)Nc1ccc(I)cc14` gave an inhibition of under 50% (10 µM).
For `COc1cc(CCNC(C)c2ccccc2O)c(OC)cc1Br.Cl` (centres unmarked), the efficacy was under 50% (Gq dissociation, agonist, BRET; 10 µM; baseline: 5-HT response).
Under activity, `Cl.NC[C@H]1C[C@]1(F)c1ccccc1Br` is recorded as “inactive” (concentration not given).
`COc1cc(CC(C)N)c(OC)cc1I` (racemic) has a Hill coefficient of 0.9 (binding, agonist, radioligand binding).
For `CCN(CC)CCCC[C@H](NC(=O)[C@H](CC(C)C)NC(=O)[C@H](C)NC(=O)[C@H](Cc1ccccc1)NC(=O)c1ccc(C(C)(C)C)cc1)C(=O)N[C@@H](CO)C(=O)OC`, the specific binding was 93% (radioligand binding; 10 µM).
`N#C[C@@]12C[C@@H]1[C@@H](n1cnc3c(NC4CCCC4)nc(I)nc31)[C@H](O)[C@@H]2O` gave an affinity gain of 6.6 fold (radioligand binding; added: [3H]LSD; baseline: 4′-cyano over 4′-CH2OH analogue).

A few entries again:
For `COc1cc(CCNC(C)c2ccccc2O)c(OC)cc1Br.Cl` (centres unmarked), the efficacy was under 50% (Gq dissociation, agonist, BRET; 10 µM; baseline: 5-HT response).
`Cn1cccc1-c1cccnc1` has an inhibition of 0.3% (binding; 50 µM).
